Published values from different studies.
Every numbered part comes from another study and shows a few of its results, in no order.

Study 1
Target: Sal-like protein 4, full length isoform A (SALL4, Homo sapiens, UniProt Q9UJQ4, residues 1-1053)
Chain of UniProt Q9UJQ4 (whole entry, looked up): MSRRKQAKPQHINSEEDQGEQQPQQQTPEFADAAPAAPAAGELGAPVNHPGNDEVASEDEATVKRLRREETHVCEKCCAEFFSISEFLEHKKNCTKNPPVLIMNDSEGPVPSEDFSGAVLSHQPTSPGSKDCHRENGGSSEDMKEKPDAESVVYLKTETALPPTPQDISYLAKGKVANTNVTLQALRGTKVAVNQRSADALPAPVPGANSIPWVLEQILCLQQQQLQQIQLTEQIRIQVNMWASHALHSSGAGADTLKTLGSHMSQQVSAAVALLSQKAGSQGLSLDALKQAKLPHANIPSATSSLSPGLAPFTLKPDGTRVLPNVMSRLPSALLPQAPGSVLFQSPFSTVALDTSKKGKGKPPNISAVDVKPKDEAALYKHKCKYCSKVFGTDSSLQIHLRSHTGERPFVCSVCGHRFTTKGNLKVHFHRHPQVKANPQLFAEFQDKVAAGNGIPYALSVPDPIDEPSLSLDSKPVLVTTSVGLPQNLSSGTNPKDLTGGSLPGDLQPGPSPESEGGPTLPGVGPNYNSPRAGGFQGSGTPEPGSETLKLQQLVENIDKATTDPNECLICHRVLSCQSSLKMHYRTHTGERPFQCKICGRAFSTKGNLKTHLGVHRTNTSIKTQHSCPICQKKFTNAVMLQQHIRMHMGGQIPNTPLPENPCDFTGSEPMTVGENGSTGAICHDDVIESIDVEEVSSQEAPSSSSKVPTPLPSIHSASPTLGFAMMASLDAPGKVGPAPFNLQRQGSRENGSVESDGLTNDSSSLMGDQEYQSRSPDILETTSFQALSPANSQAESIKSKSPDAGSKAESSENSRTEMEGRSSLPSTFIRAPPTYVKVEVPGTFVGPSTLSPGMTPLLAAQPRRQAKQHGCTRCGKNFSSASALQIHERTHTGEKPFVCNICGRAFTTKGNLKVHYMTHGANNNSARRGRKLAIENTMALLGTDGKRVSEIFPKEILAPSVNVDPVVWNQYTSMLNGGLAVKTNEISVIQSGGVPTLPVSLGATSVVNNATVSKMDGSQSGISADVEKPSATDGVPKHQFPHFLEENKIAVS
Technique: universal PBM
Form: double-stranded DNA, one strand shown
Medium: in vitro
Concentration: 600 nM
Setting: 8-mer, flanks averaged, mean of replicates
Reading: higher = stronger binding
Oligonucleotide	E-score
ACCCGATG	-0.198
AAGTTACA	0.119
GCTGGGAA	-0.136

Study 2
Target: Histone acetyltransferase KAT6A, both winged helices, GST fusion (KAT6A, Homo sapiens, UniProt Q92794, residues 1-181)
Technique: protein binding microarray
Form: double-stranded DNA, one strand shown
Medium: in vitro
Concentration: not given
Setting: 8-mer, flanks averaged, mean of 2 arrays, mostly near background
Relative to: not given
Reading: higher = stronger binding
Target sequence (chain): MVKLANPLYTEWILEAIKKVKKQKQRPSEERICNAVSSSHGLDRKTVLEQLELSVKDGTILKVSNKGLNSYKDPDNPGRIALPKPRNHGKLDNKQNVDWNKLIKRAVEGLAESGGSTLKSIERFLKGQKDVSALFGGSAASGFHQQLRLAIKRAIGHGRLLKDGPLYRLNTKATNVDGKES
Oligonucleotide	E-score
GGGAAGTA	-0.00968
TAACCCAA	-0.193
AGGGTCTA	-0.0685
GAGGTACA	-0.232

Study 3
Target: POU, POU domain (Salpingoeca helianthica)
Technique: Spec-seq
Form: double-stranded DNA, one strand shown
Medium: in vitro
Concentration: not given
Setting: whole probe, mean of replicates
Relative to: not given
Reading: lower = stronger binding
Construct (chain): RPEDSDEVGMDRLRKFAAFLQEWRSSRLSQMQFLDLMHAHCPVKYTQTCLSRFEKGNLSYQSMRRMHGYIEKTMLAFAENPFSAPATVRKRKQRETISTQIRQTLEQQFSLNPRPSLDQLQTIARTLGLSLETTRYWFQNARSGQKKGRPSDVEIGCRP
Oligonucleotide	relative binding energy
GAGTCGTCTCGTCAGCACATTCGTATCCGTAGAGCACTCAGGTC	1.04 ln ratio
GAGTCGTCTCGTCAGCACATGCGCGTCCGTAGAGCACTCAGGTC	1.44 ln ratio
GAGTCGTCTCGTCAGCACATTCACATCCGTAGAGCACTCAGGTC	1.07 ln ratio

Mixed results
Molecule	target	test	test system	setting	scale	quantity	result
PhoQ, residues 284 288 289 292 302 303 SASVAL	PhoP, residues 12 14 15 18 19 NHFRA (Escherichia coli, UniProt P23836)	Sort-seq, refers to: YFP reporter	E. coli	PhoQ-PhoP variant library, with: 10 µM Mg2+	relative to: high Mg2+ state, higher = stronger signaling	fold induction	1.07

A few entries again (study 2):
Oligonucleotide	E-score
GGGAAGTA	-0.00968
AGGGTCTA	-0.0685
